# Measurements gathered from unrelated publications.
# ± gives the spread as reported.
# CNR2: Cannabinoid receptor 2 (CNR2, Homo sapiens, UniProt P34972)
# UniProt P34972, sequence (whole entry, unmodified, looked up): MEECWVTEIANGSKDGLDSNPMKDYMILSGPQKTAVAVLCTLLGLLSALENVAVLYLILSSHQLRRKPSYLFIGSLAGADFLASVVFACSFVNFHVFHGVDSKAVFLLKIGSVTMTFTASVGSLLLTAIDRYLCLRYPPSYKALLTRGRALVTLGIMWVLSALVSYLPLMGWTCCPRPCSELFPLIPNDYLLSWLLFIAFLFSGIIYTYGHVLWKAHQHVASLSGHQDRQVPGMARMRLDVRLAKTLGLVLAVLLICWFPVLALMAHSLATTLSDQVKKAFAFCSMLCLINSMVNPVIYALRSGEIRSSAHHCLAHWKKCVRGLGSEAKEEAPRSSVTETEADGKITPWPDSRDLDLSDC
Compound,target or system,assay,system,setting,how to read,measurement,value
CCOC(=O)[C@H](CSC)NC(=O)c1ccc(C2CC2)c(Cc2ccc(F)cc2)n1,CNR2,radioligand binding,,,reference: CB1 over CB2 (human),Ki ratio,6
Cc1nc([C@@](C)(CC2CC2)NC(=O)c2cc(OCC(F)(F)F)c(C3CC3)cn2)no1,CNR2,"cAMP, agonist",CHO cells,,reference: CB1 EC50 over CB2 EC50,selectivity ratio,174
CCOC(=O)[C@](CC)(CCC[S+]([O-])CCOCCOCCNC(=O)OC(C)(C)C)NC(=O)c1ccc(C2CC2)c(Cc2ccc(F)cc2)n1 (some centres unmarked),CNR2,cAMP level,,together with: forskolin,reference: hCB1 over hCB2,selectivity ratio,≥ 577 fold
COc1ccc(-c2ccc3c(N4CCOC[C@@H]4C)nc(N4CCOC[C@@H]4C)nc3n2)cc1CO,human coronavirus OC43,virus-induced cell killing,MRC-5,maximum over 10 doses,,maximum inhibition,0%
CCOC(=O)C(CC)(CCCSCCOCCOCCOCCOCCNC(=O)OC(C)(C)C)NC(=O)c1ccc(C2CC2)c(Cc2ccc(F)cc2)n1 (centres unmarked),CNR2,radioligand binding,,,reference: CB1 over CB2 (human),Ki ratio,5
CNC(=O)[C@@H](NC(=O)c1cc(OCC2(C)COC2)c(C2CC2)cn1)C(C)(C)C,CNR2,"cAMP, agonist",CHO cells,,reference: CB1 EC50 over CB2 EC50,selectivity ratio,> 383
CCCCCCC(C)(C)c1ccc([C@@H]2C[C@H](O)CC[C@H]2CCCO)c(O)c1,"CNR2 (Homo sapiens, UniProt P34972, L182I)","cAMP inhibition, agonist, CAMYEL BRET biosensor",,together with: 10 µM forskolin,reference: wild type receptor,Emax,75.6 ± 1.5%
CC/C(=C(\c1ccc(O)cc1)c1ccc(OCCN(C)C)cc1)c1ccccc1,CNR2,measured: cAMP,CHO-hCB2 cells,,,inverse agonist efficacy,193%
Cc1nc(N)sc1-c1ccnc(Nc2ccc(N3CCOCC3)cc2)n1,human coronavirus OC43,virus-induced cell killing,MRC-5,maximum over 10 doses,,maximum inhibition,0%
C=C1CC/C=C(\C)CC[C@@H]2[C@@H]1CC2(C)C,CNR2,"[3H]CP55,940 binding, radioligand displacement",HEK293 cell membranes,"31.6 µM, together with: 0.5 mg/mL BSA",,inhibition,< 25%
COC(=O)[C@@H](NC(=O)c1nn(Cc2ccc(F)cc2)c2ccccc12)C(C)(C)C,CNR2,GTPase,,,reference: compound,Gi GTP turnover minimum,98%
CCOC(=O)C(CC)(CCCSCCOCCOCCOCCNC(=O)OC(C)(C)C)NC(=O)c1ccc(C2CC2)c(Cc2ccc(F)cc2)n1 (centres unmarked),CNR2,radioligand binding,,,reference: CB1 over CB2 (human),Ki ratio,4
CN1CCN(c2cc(-c3ccncc3)c(-c3ccc4ccccc4c3)nn2)CC1,CNR2,"antagonist, FLIPR",,10 µM,,inhibition,0.2%
O=C(Nc1cnccc1Cl)N1CCN(Cc2ccc3c(c2)OC(F)(F)O3)CC1,CNR2,binding,,"10 µM, together with: [3H]WIN-55,212-2",,inhibition,10%
CCCCCCC(C)(C)c1ccc(C2CC(O)CCC2CCCO)c(O)c1 (centres unmarked),CNR2,"forskolin-stimulated adenylyl cyclase, agonist",CHO cells,1 µM,,inhibition,86%
CCC(CC)(NC(=O)c1ccc(C2CC2)c(Cc2ccc(F)cc2)n1)C(=O)NCCOCCOCCNC(=O)c1ccc2c(c1)C(=O)OC21c2ccc(N)c(S(=O)(=O)O)c2Oc2c1ccc(N)c2S(=O)(=O)O,CNR2,binding,,,reference: CB1 Ki over CB2 Ki,selectivity ratio,> 70
CN(C(=O)n1cnc(-c2ccc[n+]([O-])c2)c1)C1CCCCC1,CNR2,radioligand binding,,"50 µM, together with: [3H]WIN-55,212-2",,inhibition,23%
CCC(CC)(NC(=O)c1ccc(C2CC2)c(Cc2ccc(F)cc2)n1)C(=O)NCCOCCOCCNC(=O)c1ccc2c(c1)C1(OC2=O)c2ccc(N(C)C)cc2[Si](C)(C)c2cc(N(C)C)ccc21,CNR2,binding,,,reference: CB1 Ki over CB2 Ki,selectivity ratio,0.7
Cc1nonc1Cn1nnc2c(N3CC[C@H](O)C3)nc(C(C)(C)C)nc21,CNR2,"binding, [3H]-CP55940 displacement",,,reference: CB1 Ki over CB2 Ki,selectivity ratio,> 939
O=C(Nc1cccnn1)N1CCC(=Cc2cccc(Oc3ccc(C(F)(F)F)cn3)c2)CC1,CNR2,binding,,"50 µM, together with: [3H]WIN-55,212-2",,inhibition,66%
